Published values from different studies.
Numbered parts are unrelated; each lists some results of a single study. Positions count from the first letter of the parent shown.

Study 1
Target: Centromere-binding protein 1, full length, His-tagged (CBF1, Saccharomyces cerevisiae, UniProt P17106, residues 1-351)
Sequence of UniProt P17106 (whole entry, looked up): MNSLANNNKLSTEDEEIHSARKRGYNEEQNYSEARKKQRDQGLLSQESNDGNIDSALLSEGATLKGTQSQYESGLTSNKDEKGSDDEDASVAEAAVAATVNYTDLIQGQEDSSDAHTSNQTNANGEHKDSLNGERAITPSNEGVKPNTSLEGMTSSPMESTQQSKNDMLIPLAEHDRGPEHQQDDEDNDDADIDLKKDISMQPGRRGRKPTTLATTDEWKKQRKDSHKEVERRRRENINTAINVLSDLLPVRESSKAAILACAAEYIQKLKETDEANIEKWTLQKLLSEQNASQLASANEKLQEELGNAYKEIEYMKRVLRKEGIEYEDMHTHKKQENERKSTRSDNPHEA
Method: competition protein-binding microarray
Molecule type: double-stranded DNA, one strand shown
Matrix: in vitro
Concentration: 2 µM
Notes: whole 60-bp probe, lowest competitor level
Added: Pho4 competitor, 0.05 µM
Reading: higher = stronger binding
Quantity: fluorescence intensity
TGAAAAGTGTGCTGGCACGGGATCGTTACTAATCCAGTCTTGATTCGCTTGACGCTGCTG: 305 a.u.
AAGTACGTCCTCTTGGCCGTGATGGCTGTTGTATTTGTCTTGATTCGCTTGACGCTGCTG: 68.2 a.u.
CTTCTGTAAATTTGCGAGGTGGGTGGACGCGCCCCGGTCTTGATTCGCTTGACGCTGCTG: 85.1 a.u.
ATAGAGCTGTATTCTGAAGACCTCTTGTAGAACATCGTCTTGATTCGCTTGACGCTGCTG: 78.1 a.u.
ATTACCAAACGCTGTCATGTGTAGCCACTCTAGAAGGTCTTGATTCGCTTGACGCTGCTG: 140 a.u.
AAATTACTAAGTTGCCACGTGGGTGACGCCGTATGAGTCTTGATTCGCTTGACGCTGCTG: 988 a.u.
ATTATACAACAAACACACGTTAAGAGACGCAAACGGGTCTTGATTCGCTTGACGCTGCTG: 78.9 a.u.
CTAACGAAGGTTTGACTAGTGGGTGACAAGCCAAGTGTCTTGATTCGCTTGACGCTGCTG: 66.2 a.u.
TAGGTAGCAAATATTGGCGTGATTGCGGAGCCTTCCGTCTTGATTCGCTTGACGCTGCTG: 67.5 a.u.
TGCGCAACAACTTTTCACGTGCGGTTATGTCTAGAAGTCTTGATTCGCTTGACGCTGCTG: 918 a.u.
CTTCTGTAAATTTGCGCTGTGGGTGGACGCGCCCCGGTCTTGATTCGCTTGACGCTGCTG: 74.6 a.u.
AAATTACTAAGTTGCTGGGTGGGTGACGCCGTATGAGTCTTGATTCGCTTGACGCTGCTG: 78.9 a.u.
GCTGCGGCATCATTGATCATGCCATTTTTGGACAATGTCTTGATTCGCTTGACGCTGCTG: 80.7 a.u.
AATTGGGGTGCGAGTCACGTGCAAAACGACGGTAGTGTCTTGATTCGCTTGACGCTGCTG: 5900 a.u.
AAATTACTAAGTTGAGCGGTGGGTGACGCCGTATGAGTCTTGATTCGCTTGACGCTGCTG: 82.6 a.u.
GATGTAGATTACACTCTCATGACAATAAGCCACCCGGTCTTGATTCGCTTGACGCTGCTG: 62.7 a.u.
AAAGCGGTAATTTGCAGGGTGGGTGCAGATATCTATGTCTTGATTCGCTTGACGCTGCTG: 65 a.u.
CTTGTGCGGGGAGGACACGCTGAATAGAAGGCTTGTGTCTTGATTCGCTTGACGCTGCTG: 73.3 a.u.
CAATTGTTGCTCTGGCACGTGAGATATATGGTAAGAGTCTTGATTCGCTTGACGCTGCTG: 2040 a.u.
TGGTAATAACTGGAGCATGTGGCTGCGAATGTCCCGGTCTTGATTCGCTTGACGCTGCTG: 134 a.u.
AAATTACTAAGTTTTCACGTGGCATACCCCGTATGAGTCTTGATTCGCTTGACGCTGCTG: 859 a.u.
CGGGGTTAAGTTTGCCCGGTGGGTGGCTTGCAGCAGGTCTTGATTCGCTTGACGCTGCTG: 58.4 a.u.
CATACCCAACCTTTTCACGTGACCTAAGATATTTGTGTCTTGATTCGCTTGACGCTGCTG: 10300 a.u.
TGTACCGGGTGGGACGTCGTGCAAAGAATCAGAAGTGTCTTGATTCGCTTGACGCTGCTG: 73.3 a.u.
AAATACAAAGACAAGCATGTGCTTTCGGCAAAAGTGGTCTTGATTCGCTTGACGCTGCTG: 174 a.u.

Study 2
Target: Interferon regulatory factor 7, full length, phosphomimetic (IRF7, Homo sapiens, UniProt Q92985, residues 1-503, S101K/S471D/S472D/S475D/S476D/S477D/S483D/S484D/S487D)
Sequence of UniProt Q92985 (whole entry, unmodified, looked up): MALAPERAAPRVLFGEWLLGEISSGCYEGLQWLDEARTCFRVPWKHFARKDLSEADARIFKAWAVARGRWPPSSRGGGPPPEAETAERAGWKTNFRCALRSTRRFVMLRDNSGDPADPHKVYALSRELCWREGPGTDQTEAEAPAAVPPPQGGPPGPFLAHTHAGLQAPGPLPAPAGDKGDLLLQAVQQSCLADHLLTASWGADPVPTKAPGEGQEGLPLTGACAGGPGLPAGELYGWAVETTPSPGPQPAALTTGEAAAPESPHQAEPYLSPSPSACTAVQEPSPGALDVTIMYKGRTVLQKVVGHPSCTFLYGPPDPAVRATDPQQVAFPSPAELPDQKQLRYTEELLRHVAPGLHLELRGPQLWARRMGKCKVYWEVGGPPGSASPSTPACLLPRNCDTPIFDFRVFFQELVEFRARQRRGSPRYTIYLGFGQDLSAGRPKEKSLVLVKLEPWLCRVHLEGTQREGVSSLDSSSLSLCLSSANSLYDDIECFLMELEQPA
Method: protein-binding microarray
Molecule type: double-stranded DNA, one strand shown
Matrix: in vitro
Concentration: 250 nM
Notes: 60-bp whole probe
Added: salmon DNA 0.4 mg/ml
Reference: random background probes
Reading: higher = stronger binding
Quantity: log fluorescence
Shared flanks, not repeated: GCCTAGCAC … GTCTTGATTCGCTTGACGCTGCTG
TTAGGTTTCGGTTCCGATTAGTGCTAG: 12.6 z-score
TTAGGTTTCGGTCACGGTTAGTGCTAG: 4.28 z-score
TTAGGCATCGGTATCGGTTAGTGCTAG: 1.12 z-score
GAATGTCCTCCTCTCTCTTTGTGCTAG: 0.144 z-score
GGTACTCACCTCCAGGCTGAGTGCTAG: -0.133 z-score
GACGAACTGAGTCTCGAGCCGTGCTAG: -0.00277 z-score
TTTGGTATCGGGACTGGGTTAGTGCTA: 0.359 z-score
AAGACCATCCTATGTAGATGTGTGCTA: 0.659 z-score
TCAAAATTTTTTTTCTAACTGTGCTAG: 0.109 z-score
TTAGGACTGCTTATCCTTTAGTGCTAG: -0.0201 z-score
GCCACTTTCCATTTCTGTTTGTGCTAG: 2.92 z-score
GTCACTCTCTGGGCTGTGGGTGTGCTA: 0.0476 z-score
TACTCTCTCCATGTGTTTAAGTGCTAG: 0.923 z-score
TGTTTTTCATTGTTTTTCATCGTGCTA: 2.57 z-score
TTATATACCTGTATATCTTCGTGCTAG: 0.54 z-score
GACGATTTTAGTTCCGAGACGTGCTAG: 0.746 z-score
TCAGAAATTCCTCTGAAACTGTGCTAG: 0.23 z-score

Study 3
Target: CCNB2, cyclin fold, Cln2 fusion (human)
Method: yeast growth competition, sequencing
Matrix: yeast
Notes: weak parent motif
Reference: not given
Reading: higher = stronger binding
Quantity: normalised enrichment score
Starting sequence: ITGB3BP docking peptide (human); MPVKRSLKLDGLL; partner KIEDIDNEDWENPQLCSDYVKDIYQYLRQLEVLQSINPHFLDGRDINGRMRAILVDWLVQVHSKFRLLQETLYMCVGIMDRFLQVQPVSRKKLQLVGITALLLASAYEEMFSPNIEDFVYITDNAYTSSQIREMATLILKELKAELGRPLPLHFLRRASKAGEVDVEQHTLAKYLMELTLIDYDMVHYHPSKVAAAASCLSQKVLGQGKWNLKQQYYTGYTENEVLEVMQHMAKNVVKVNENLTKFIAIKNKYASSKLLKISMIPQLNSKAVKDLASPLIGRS
G11A: 0.493
K8A: 0.539
R5A: 0.0973
L12A: 0.369
K4A: 0.48
D10A: 0.0197
L9F: 0.305
M1A: 0.107

Study 4
Target: Sal-like protein 4, full length isoform A (SALL4, Homo sapiens, UniProt Q9UJQ4, residues 1-1053)
Sequence of UniProt Q9UJQ4 (whole entry, looked up): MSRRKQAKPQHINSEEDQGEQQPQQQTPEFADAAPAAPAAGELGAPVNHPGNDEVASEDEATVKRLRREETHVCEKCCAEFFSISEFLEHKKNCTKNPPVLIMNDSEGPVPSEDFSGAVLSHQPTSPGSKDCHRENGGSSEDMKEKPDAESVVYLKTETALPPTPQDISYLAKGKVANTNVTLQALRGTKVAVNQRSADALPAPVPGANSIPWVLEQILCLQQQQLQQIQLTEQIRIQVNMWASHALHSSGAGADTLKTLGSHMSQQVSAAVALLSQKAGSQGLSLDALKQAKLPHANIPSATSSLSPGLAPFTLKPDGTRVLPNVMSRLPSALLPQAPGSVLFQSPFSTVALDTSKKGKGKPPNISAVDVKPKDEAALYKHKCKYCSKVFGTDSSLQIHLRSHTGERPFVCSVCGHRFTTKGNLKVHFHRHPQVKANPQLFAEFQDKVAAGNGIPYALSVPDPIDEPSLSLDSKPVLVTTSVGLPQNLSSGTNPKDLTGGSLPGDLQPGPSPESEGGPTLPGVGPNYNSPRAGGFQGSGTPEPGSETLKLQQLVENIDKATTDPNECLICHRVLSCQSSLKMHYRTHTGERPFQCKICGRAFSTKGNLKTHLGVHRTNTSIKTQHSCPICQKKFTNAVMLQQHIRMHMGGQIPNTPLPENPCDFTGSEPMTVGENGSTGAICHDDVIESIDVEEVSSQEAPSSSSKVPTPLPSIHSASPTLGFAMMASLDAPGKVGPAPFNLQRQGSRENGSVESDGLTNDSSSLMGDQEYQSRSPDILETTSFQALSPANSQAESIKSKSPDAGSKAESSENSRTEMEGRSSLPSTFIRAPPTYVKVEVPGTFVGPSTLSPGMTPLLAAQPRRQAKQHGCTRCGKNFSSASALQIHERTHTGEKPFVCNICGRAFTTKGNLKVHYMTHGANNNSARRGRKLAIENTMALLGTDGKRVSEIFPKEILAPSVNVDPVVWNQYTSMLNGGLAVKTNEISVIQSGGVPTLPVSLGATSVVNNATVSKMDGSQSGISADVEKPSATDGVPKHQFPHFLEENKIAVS
Method: universal PBM
Molecule type: double-stranded DNA, one strand shown
Matrix: in vitro
Concentration: 600 nM
Notes: 8-mer, flanks averaged, mean of replicates
Reading: higher = stronger binding
Quantity: E-score
AATCGCGT: -0.1
ACAGCAAG: 0.107
ATGTGCTC: 0.0624
TCCCGGGA: -0.31
AATTCTCT: 0.00736
ATTAAGAG: 0.164
CCCTATCG: -0.0705
AAGGGTGC: -0.202
AAGCGTAC: -0.0135
ATCCCGTC: -0.156
ATATGCCG: 0.11
AGTTGAGG: -0.0975
ACGTCGAC: -0.0583
TCGTTTAA: 0.14
CTGAGCAG: -0.116
GCTAGCCA: -0.345
GCCTTAGA: -0.186
AAACAGTG: 0.0551
CCGATGGA: -0.196
CCGCCCCA: -0.198
TAGTGGGA: -0.108
CGGCACTA: -0.246
CCGACTGC: -0.307
ATCCGCGG: -0.214
CTGCCGGC: -0.305

Study 5
Target: RNA binding protein fox-1 homolog 2, RRM domain, GST-SBP tag (RBFOX2, Homo sapiens, UniProt O43251-10, residues 100-194)
Method: RNA Bind-n-Seq
Molecule type: RNA
Matrix: in vitro
Concentration: 365 nM
Notes: natural RNA segment, single round, ends assumed
Reference: no-protein control
Reading: higher = stronger binding
Quantity: RBNS enrichment (R)
Target sequence (chain): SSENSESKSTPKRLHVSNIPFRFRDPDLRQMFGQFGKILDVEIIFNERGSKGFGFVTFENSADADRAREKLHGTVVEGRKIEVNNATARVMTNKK
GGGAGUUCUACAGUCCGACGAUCUCCCUUCUGCUUGUCCCAAAUCCGCCAGUGUUUCUGAAUGUUUGUGUCUGUGGUUGCAGUCUUUCCCCCAGGAAAAAAAAAAAAAGAAAUUCGCAUGUUUAAUGUGAACUUGGAAUUCUCGGGUGCCAA: 1.34
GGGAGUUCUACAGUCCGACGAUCUGGCAGCCCAGAAUCCUCAAGACAAAGCAAGGGGUAUCAGCUGAUGGCCGCGGGACUGAUGGGUGUCCUGGGUUCUUUAGCUCACCAGCACUUUGCGCUCAAUGGACUUUUGGAAUUCUCGGGUGCCAA: 0.519
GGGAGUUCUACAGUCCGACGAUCUAUGGCUGUUGAAAAGUAUAGAGCUAAAUUGAUUUAAUUACACUUUCCUUUGUACUUUAAAAAAAAGUAUGCUAGCACUAUUGUACCUUGAAAGGAUUUCCACCAGACUGUGGAAUUCUCGGGUGCCAA: 1.8
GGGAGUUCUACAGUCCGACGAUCUUGGGCUGCCCCCAUCUCUCCCAACAAGGUGUACAUAUUCUGCGUAGAUGCUAGACCAACCAGCUUCCCAGGGUUCGUCGCUGUGAGGCGUAAGGGACAUGAAUUCUAGGUGGAAUUCUCGGGUGCCAA: 0.278
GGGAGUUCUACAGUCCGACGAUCAACGGUCACCCUGUAAAGUGCUCAGAGUCGGAGUCCAGCACCUCCCCCAGUGGUGGCAGCUGUUCCAUGCCUGCUCUGUUUCAGCUCUUCUGAGACAGGGAGGAGGAGCCUGGAAUUCUCGGGUGCCAA: 0.263
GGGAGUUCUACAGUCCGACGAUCGUGGCCUAUGGCCCAGGACAGCCUGGCAGGUGGCCUCGCUGCCCCCAGUUCCCCUCUCUGCCCCCACACUCGUCUUAGUUGCUUCACACUGGUCACUGGCCCUGCACACUUGGAAUUCUCGGGUGCCAA: 0.745
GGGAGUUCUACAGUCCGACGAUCCUGCUUUCCUGGGAAGCCGCAAGUUCAGUCAGUGGGGCACACAGGCUUUGUUUCAGCCUGGAAGUGAGGGCUCUGGAGAUGGAGAUAGGAGCCAUAAGCUCUCCUUCAGAUGGAAUUCUCGGGUGCCAA: 0.588
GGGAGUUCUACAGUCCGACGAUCCCUAUCGAGAAGGGGCCGAAGGCGAAUGAACACAAAGCCUCGAAGCCAGUGGUUCCGGCUGAGCUCUCCUGGCUGGUCCCCCAGGACCACCAGCACUGCCGUGGGUCUCCUGGAAUUCUCGGGUGCCAA: 0.216
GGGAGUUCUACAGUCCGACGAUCCCCUCCACGCCCUCCGUGAGGUUGUCCAGGCUGUGUUCUCUCGCAUGCUUCUCUUCUAUAUAACCCUCAUCUUCUCAUUUUAUGGGAUUCAACACAAAGUCUACUUAUGCUGGAAUUCUCGGGUGCCAA: 5.85
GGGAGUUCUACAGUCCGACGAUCGUGUCAGUAUGCAGGACUGCUAUGUACUCGGCAACCAUCCACUGUAGUCACAGCUUCUACUUGCAUAGCCCUCAGCUCCUCGAUGCAGGAAGGGGGCACUGCAUUGCUCUUGGAAUUCUCGGGUGCCAA: 0.79
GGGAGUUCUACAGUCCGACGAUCAGCCAUGGCCACUCCUGUGCCGGGGAAGACAUCACAUACCUUCAGCACUUCUCACAAUGUAACUGCUUUAGUCAUAUUAACCUGAAGUUGCAGUUUAGACACAUGUUUUUUGGAAUUCUCGGGUGCCAA: 0.233
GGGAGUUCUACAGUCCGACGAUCGGUCUAUAUUAGAAAAAGAAAACUGUCCUUUUGCUAAAGAAAAAUUAAAUGAAUUUUUAAGGCUGAAAUCUGUGGGUAAGAUGGAGUCUGGAGCUUUCCUCUUGGAACAGUGGAAUUCUCGGGUGCCAA: 0.462

For quick reference, copied from above (study 3):
L9F: 0.305
K8A: 0.539
K4A: 0.48
G11A: 0.493
M1A: 0.107
L12A: 0.369
R5A: 0.0973
